Published values pooled from the literature.
Numbered parts are unrelated; each lists some results of a single study.
UniProt P42336, sequence (whole entry, unmodified, looked up): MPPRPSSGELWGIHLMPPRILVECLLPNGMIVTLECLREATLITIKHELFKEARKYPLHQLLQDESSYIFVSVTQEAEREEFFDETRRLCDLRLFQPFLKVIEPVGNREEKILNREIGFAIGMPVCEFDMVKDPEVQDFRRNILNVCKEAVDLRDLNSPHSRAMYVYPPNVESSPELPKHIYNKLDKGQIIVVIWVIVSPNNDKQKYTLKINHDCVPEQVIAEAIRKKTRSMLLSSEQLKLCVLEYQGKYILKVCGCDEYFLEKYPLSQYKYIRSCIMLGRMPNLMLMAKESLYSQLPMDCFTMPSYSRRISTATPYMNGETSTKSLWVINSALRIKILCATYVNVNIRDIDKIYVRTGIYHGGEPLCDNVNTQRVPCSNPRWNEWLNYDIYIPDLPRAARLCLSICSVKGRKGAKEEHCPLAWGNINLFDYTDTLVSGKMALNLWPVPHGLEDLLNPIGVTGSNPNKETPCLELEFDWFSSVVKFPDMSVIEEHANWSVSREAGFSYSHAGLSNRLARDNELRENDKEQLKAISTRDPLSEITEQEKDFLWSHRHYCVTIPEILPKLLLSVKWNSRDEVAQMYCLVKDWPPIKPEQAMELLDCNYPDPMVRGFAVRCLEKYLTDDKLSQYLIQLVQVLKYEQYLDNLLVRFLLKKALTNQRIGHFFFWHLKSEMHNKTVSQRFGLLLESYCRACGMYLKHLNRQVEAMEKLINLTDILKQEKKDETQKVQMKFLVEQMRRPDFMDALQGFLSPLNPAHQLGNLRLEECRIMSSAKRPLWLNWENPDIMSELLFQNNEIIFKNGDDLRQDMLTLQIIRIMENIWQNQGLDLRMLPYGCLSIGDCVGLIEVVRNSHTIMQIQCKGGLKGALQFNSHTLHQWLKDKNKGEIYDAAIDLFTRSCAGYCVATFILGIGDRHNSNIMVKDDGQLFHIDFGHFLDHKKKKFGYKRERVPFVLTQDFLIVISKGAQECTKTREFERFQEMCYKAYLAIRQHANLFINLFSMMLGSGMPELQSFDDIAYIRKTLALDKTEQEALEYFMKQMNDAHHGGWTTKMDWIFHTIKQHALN
UniProt P42684, sequence (whole entry, looked up): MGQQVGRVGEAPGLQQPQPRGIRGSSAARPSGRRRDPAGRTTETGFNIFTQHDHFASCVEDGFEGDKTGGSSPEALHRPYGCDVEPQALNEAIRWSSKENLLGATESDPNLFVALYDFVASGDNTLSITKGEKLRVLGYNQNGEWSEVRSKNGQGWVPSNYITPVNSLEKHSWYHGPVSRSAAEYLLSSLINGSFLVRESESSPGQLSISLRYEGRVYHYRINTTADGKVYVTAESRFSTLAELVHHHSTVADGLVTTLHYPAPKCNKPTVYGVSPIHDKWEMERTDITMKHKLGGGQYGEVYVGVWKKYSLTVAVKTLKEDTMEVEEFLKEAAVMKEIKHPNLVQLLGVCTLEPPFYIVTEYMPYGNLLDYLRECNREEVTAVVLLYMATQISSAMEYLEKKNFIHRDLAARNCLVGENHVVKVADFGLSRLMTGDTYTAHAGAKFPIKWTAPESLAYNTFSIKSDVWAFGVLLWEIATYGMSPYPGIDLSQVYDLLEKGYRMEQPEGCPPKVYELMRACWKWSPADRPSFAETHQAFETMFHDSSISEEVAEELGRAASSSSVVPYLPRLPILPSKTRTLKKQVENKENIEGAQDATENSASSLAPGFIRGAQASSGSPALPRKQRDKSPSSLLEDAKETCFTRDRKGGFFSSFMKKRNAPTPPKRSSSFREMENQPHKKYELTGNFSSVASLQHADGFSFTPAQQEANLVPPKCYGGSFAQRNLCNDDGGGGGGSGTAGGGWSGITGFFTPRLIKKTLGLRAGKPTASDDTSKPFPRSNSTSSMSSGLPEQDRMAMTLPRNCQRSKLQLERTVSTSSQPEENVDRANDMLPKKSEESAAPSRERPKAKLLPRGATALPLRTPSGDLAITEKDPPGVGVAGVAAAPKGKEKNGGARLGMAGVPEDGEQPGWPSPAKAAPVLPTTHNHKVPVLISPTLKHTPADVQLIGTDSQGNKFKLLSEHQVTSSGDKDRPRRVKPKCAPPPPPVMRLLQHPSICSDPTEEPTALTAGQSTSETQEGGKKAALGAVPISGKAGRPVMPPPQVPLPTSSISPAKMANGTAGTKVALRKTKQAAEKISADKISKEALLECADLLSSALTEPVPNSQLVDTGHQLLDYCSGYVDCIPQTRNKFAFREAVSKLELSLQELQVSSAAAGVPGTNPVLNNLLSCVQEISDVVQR
UniProt Q16816, sequence (whole entry, looked up): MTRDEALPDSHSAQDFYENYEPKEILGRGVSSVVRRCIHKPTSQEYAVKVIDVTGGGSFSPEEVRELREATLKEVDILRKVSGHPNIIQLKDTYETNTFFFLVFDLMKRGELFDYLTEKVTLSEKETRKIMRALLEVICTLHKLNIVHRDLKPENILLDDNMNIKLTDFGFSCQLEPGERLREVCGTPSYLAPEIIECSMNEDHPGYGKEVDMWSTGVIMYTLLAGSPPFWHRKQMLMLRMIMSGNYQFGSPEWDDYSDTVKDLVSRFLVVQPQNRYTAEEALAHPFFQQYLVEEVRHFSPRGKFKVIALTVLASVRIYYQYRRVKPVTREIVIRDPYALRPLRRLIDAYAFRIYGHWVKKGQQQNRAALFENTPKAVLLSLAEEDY
UniProt Q13131, sequence (whole entry, looked up): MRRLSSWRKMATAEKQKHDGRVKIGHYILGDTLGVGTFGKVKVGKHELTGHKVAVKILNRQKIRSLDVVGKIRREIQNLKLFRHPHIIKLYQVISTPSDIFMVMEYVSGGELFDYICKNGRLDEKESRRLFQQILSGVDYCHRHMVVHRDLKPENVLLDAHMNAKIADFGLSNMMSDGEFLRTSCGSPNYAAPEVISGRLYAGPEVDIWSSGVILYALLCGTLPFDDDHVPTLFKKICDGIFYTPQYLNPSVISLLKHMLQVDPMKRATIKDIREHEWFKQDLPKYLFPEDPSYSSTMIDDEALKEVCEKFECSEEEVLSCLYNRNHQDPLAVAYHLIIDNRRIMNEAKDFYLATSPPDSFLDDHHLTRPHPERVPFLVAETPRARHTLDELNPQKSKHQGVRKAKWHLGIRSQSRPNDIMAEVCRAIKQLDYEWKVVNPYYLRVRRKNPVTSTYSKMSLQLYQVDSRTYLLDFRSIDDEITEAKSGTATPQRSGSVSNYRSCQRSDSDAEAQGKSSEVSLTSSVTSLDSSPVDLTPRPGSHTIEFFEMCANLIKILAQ
UniProt Q96PY6, sequence (whole entry, looked up): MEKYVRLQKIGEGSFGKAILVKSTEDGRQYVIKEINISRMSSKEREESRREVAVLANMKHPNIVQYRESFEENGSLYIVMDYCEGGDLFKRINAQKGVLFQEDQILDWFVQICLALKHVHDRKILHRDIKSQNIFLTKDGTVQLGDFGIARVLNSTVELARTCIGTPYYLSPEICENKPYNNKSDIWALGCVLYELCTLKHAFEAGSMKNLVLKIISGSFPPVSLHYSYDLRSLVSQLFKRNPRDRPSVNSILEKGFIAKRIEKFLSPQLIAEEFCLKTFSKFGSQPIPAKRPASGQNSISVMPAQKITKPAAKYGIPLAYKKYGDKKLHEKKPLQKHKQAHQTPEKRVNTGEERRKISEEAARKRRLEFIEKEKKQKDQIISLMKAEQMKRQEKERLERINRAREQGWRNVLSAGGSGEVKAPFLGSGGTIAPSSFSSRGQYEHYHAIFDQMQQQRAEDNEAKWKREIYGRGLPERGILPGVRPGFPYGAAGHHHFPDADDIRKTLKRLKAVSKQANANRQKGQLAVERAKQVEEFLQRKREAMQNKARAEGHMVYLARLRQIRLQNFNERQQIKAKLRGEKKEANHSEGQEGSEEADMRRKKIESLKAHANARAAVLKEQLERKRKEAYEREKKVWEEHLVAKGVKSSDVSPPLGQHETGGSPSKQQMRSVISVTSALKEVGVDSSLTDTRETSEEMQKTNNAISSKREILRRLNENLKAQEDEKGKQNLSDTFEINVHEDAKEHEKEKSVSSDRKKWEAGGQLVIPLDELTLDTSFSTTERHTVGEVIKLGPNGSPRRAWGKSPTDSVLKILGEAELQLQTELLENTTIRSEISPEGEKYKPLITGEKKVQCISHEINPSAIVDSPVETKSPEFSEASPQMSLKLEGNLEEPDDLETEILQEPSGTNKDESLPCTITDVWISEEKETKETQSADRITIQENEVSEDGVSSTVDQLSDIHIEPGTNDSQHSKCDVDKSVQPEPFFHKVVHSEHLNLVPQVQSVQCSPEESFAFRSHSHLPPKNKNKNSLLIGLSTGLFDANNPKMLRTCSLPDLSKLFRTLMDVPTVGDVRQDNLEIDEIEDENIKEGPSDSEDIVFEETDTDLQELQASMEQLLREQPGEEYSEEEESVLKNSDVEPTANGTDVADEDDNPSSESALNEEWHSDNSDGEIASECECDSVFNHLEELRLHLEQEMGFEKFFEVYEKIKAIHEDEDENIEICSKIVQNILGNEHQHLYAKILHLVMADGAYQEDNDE
UniProt Q9HC98, sequence (whole entry, looked up): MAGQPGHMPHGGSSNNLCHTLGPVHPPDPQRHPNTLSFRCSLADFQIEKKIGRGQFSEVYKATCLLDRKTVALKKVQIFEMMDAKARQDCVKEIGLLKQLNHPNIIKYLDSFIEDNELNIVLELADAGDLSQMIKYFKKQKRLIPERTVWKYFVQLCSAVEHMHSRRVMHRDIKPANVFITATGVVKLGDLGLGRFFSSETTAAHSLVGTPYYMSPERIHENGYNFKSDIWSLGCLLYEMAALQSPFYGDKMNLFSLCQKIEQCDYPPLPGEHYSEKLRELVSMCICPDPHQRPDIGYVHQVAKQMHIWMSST

Series 1
Compound: CCN(CC)CCNC(=O)c1c(C)[nH]c(/C=C2\C(=O)Nc3ccc(F)cc32)c1C
Effect on: enzyme activity
Action: inhibitor
Tested at: 0.5 µM
Reference: control
| target | remaining activity |
| --- | --- |
| MAPKAPK2 (Homo sapiens, UniProt P49137) | 93.2% |
| FGFR3 (Homo sapiens, UniProt P22607) | 39.7% |
| NEK1 (Homo sapiens, UniProt Q96PY6) | 72.6% |
| MERTK (Homo sapiens, UniProt Q12866) | 39.8% |
| ARAF (Homo sapiens, UniProt P10398) | 124% |
| TEK (Homo sapiens, UniProt Q02763) | 88.6% |
| NEK6 (Homo sapiens, UniProt Q9HC98) | 89% |
| RPS6KA2 (Homo sapiens, UniProt Q15349) | 17.3% |
| MST1R (Homo sapiens, UniProt Q04912) | 92% |
| MAP3K14 (Homo sapiens, UniProt Q99558) | 127% |
| MAP3K5 (Homo sapiens, UniProt Q99683) | 100% |
| FRK (Homo sapiens, UniProt P42685) | 84.4% |
| GSK3B (Homo sapiens, UniProt P49841) | 95.8% |
| TAOK2 (Homo sapiens, UniProt Q9UL54) | 90.3% |
| ULK2 (Homo sapiens, UniProt Q8IYT8) | 40.3% |
| WEE1 (Homo sapiens, UniProt P30291) | 91.8% |
| JAK3 (Homo sapiens, UniProt P52333) | 80.7% |
| ABL2 (Homo sapiens, UniProt P42684) | 61.8% |
| GRK7 (Homo sapiens, UniProt Q8WTQ7) | 71.3% |

Series 2
Compound: C[C@H](c1ccnc(Nc2nc3ccc(-c4cc(N(C)C)ncn4)cc3[nH]2)c1)N1CCN(C(=O)CC(F)(F)F)CC1
Effect on: cell-free assay
Method: competition with immobilised ligand
Tested at: 0.1 µM
| target | remaining binding [%] |
| --- | --- |
| PTK2B (Homo sapiens, UniProt Q14289) | 91 |
| PIK3CA (Homo sapiens, UniProt P42336, M1043I) | 84 |
| DCLK1 (Homo sapiens, UniProt O15075) | 96 |
| Non-receptor tyrosine-protein kinase TYK2, JH1 (TYK2, Homo sapiens, UniProt P29597) | 100 |
| MAP2K2 (Homo sapiens, UniProt P36507) | 100 |
| MAP3K20 (Homo sapiens, UniProt Q9NYL2) | 98 |
| PHKG1 (Homo sapiens, UniProt Q16816) | 100 |
| PRKAA1 (Homo sapiens, UniProt Q13131) | 100 |
| PRKCE (Homo sapiens, UniProt Q02156) | 96 |

Series 3
Medium: hydrocarbon/water
pH: 7.4
| SMILES | logD |
| --- | --- |
| CC(C)C[C@@H]1NC(=O)[C@H](C)N(C)C(=O)[C@H](CC2CCCCC2)NC(=O)CN(CC(C)C)C(=O)[C@H]2CCCN2C(=O)[C@H](CC2CCCCC2)NC(=O)[C@H](C)N(C)C(=O)[C@H](C2CCCCC2)NC(=O)Cn2cc(nn2)CN(C)C1=O | 3.16 |
| CC[C@H]1NC(=O)[C@H](CC(C)C)NC(=O)[C@H](Cc2ccccc2)NC(=O)[C@H]2CCCN2C(=O)[C@H](CC2CCCCC2)NC(=O)[C@H](CC2CCCCC2)NC1=O | 2.79 |
| CC[C@@H]1NC(=O)[C@H](CC)N(C)C(=O)[C@H]2CCCN2C(=O)[C@H](CC(C)C)NC(=O)[C@H](C)N(C)C(=O)[C@H](CC(C)C)NC(=O)Cn2cc(nn2)CN(C)C(=O)[C@H](CC(C)C)NC(=O)[C@H](C)N(C)C1=O | -1.04 |
| CC(C)C[C@@H]1NC(=O)[C@H](C)N(C)C(=O)[C@H](CC2CCCCC2)NC(=O)[C@H](CC(C)C)N(C)C(=O)[C@H]2CCCN2C(=O)[C@H](CC2CCCCC2)NC(=O)[C@H](C)N(C)C(=O)[C@H](CC(C)C)NC(=O)Cn2cc(nn2)CN(C)C1=O | 2.53 |
| CCC[C@H]1C(=O)N[C@@H](CC2CCCCC2)C(=O)N(C)[C@@H](C)C(=O)N[C@@H](CC(C)C)C(=O)N(C)Cc2cn(nn2)CC(=O)N[C@@H](CC(C)C)C(=O)N(C)[C@@H](C)C(=O)N[C@@H](C2CCCCC2)C(=O)N2CCC[C@@H]2C(=O)N1C | 1.76 |
| CC(C)CC1NC(=O)CN(CC2CCCCC2)C(=O)C2CCCN2C(=O)C(CC(C)C)NC(=O)C(C)N(C)C(=O)C(CC(C)C)NC(=O)CN(Cc2ccc3c(c2)OCO3)C(=O)C2CCCN2C(=O)C(C)NC(=O)C(C)N(C)C1=O (centres unmarked) | ≥ 3.4 |
| CC(C)C[C@@H]1NC(=O)[C@H](Cc2ccccc2)N(C)C(=O)[C@H]2CCCN2C(=O)[C@H](CC(C)C)NC(=O)[C@H](C)N(C)C(=O)[C@@H](CC(C)C)N(C)C1=O | 3.45 |
| CCN1CC(=O)NC(CC(C)C)C(=O)N(C)C(C)C(=O)NC(CC(C)C)C(=O)N2CCCC2C(=O)N(CC2CCOCC2)CC(=O)NC(CC(C)C)C(=O)N(C)C(C)C(=O)NC(C)C(=O)N2CCCC2C1=O (centres unmarked) | 0.441 |
| CC(C)C[C@@H]1NC(=O)[C@H](Cc2ccc(O)cc2)N(C)C(=O)[C@H]2CCCN2C(=O)[C@H](CC(C)C)NC(=O)[C@H](CC(C)C)N(C)C(=O)[C@@H](C)N(C)C1=O | 0.638 |

Further values, each from its own experiment
| SMILES | cell line | tested at | time | endpoint | value |
| --- | --- | --- | --- | --- | --- |
| C[C@@H]1C[C@H]2[C@@H]3CCC4=CC(=O)C=C[C@]4(C)[C@@]3(F)[C@@H](O)C[C@]2(C)[C@@]1(O)C(=O)CO | A-375 | 100 µM | 60 h | viability | 93.2% |

Excerpt of the above (series 3):
| SMILES | logD |
| --- | --- |
| CC[C@@H]1NC(=O)[C@H](CC)N(C)C(=O)[C@H]2CCCN2C(=O)[C@H](CC(C)C)NC(=O)[C@H](C)N(C)C(=O)[C@H](CC(C)C)NC(=O)Cn2cc(nn2)CN(C)C(=O)[C@H](CC(C)C)NC(=O)[C@H](C)N(C)C1=O | -1.04 |
| CC(C)C[C@@H]1NC(=O)[C@H](C)N(C)C(=O)[C@H](CC2CCCCC2)NC(=O)[C@H](CC(C)C)N(C)C(=O)[C@H]2CCCN2C(=O)[C@H](CC2CCCCC2)NC(=O)[C@H](C)N(C)C(=O)[C@H](CC(C)C)NC(=O)Cn2cc(nn2)CN(C)C1=O | 2.53 |
| CCC[C@H]1C(=O)N[C@@H](CC2CCCCC2)C(=O)N(C)[C@@H](C)C(=O)N[C@@H](CC(C)C)C(=O)N(C)Cc2cn(nn2)CC(=O)N[C@@H](CC(C)C)C(=O)N(C)[C@@H](C)C(=O)N[C@@H](C2CCCCC2)C(=O)N2CCC[C@@H]2C(=O)N1C | 1.76 |
